Measurements from different studies.
Every numbered part comes from another study and shows a few of its results, in no order. Substitutions count along the parent as printed.

Study 1 — method: RNA Bind-n-Seq; molecule type: RNA; medium: in vitro; concentration: 365 nM; baseline: no-protein control; reading: higher = stronger binding
Target: RNA binding protein fox-1 homolog 2, RRM domain, GST-SBP tag (RBFOX2, Homo sapiens, UniProt O43251-10, residues 100-194)
Notes: natural RNA segment, single round, ends assumed
Residues (chain): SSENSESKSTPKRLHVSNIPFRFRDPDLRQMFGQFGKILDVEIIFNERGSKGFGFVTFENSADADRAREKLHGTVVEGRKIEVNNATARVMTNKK
| Strand | RBNS enrichment (R) |
| --- | --- |
| GGGAGUUCUACAGUCCGACGAUCUAGAAGGGUCUGAUAUUAGGUUUAGUGCUCUGCUAGUGCAGUUGUUGAAUUCUUAAGAAUGUUUGAUGAAGGCAUAUUUUCACUUUGUACUGGCUCACCAAAAUUGCUGAUGGAAUUCUCGGGUGCCAA | 0.554 |
| GGGAGUUCUACAGUCCGACGAUCUCUGAGCAAUGUCCCCAGUGUCCCCUCUGGUCAUGUCCUGUUUCUGCCUCAGGGAUUGUCUCUGUUCCUUCGCUGAGGCCCUCUACUUAGGGCUGAACAUAGGAUUUAUGUGGAAUUCUCGGGUGCCAA | 0.373 |
| GGGAGUUCUACAGUCCGACGAUCCCAGCGUUGUCUCACUCUGAUCCCUACCCUGAGCCUGCUGAACUGCCCUCAGAGUGCUCAUAUGGGGAGGGGGAUAUCUACUGUGGCUUCCAAAAGUCCCCACUAGUUGGUGGAAUUCUCGGGUGCCAA | 0.358 |

Study 2 — method: RNA Bind-n-Seq; molecule type: RNA; medium: in vitro; concentration: 100 nM; baseline: input RNA pool; reading: higher = stronger binding
Target: RING finger protein unkempt homolog, zinc fingers 1-6, SBP tag (UNK, Homo sapiens, UniProt Q9C0B0, residues 30-357)
Chain of UniProt Q9C0B0 (30-357, looked up): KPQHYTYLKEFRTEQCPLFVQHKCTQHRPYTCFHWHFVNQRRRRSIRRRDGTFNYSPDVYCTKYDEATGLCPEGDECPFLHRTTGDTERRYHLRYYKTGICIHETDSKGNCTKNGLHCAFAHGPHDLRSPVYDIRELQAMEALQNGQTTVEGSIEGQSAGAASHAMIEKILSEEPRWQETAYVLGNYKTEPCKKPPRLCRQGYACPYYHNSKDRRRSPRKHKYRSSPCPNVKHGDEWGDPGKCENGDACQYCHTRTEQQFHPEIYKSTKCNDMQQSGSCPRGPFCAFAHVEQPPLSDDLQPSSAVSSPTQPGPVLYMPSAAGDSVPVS
Notes: RNA with constant flanks, vertebrate orthologous sites, ends assumed
| Strand | bound/input enrichment [ratio] |
| --- | --- |
| GGGAGUUCUACAGUCCGACGAUCAAGUAUCCCGGUUUACUGUGUUGAGUUGGCAUUGUACAGAAAUUAACAGCCAUAUUGGUCUAGAAACGUUAAACUUAAUUUUUUUCCAUUUGUACAGGGGUAACGCACUGUAUUAAAUAUCAACAGAGGAUUGAGCAUCA | 0.821 |
| GGGAGUUCUACAGUCCGACGAUCUGUUUUCUUAUUUUAGGUAUCAUUGCCCAGUGCCUAAGAUCUUUUAUGUUCAGCUGACUGUAGGAAAUAAUGAAUUUUUUGGUGAAGGGAAGACUCGACAAGCUGCAAGACACAAUGCUGCAACAGAGGAUUGAGCAUCA | 0.956 |
| GGGAGUUCUACAGUCCGACGAUCUGCACACGCCGCUAUCACCAGUGUCAACUAUCGCUUUCCAAAUUUCAUUAUGAAUCAUUUUAGUGCUUCCUAUCUCCUACCUUUCCUACCACUUUCAAUGAUGAAAAAUAGUCUAAGUUCCAACAGAGGAUUGAGCAUCA | 1.83 |

Further values, each from its own experiment — CCND3: CCND3, cyclin fold, Cln2 fusion (human)
P1: PKN2 docking peptide (human); VSAVRKLDFSDTM; partner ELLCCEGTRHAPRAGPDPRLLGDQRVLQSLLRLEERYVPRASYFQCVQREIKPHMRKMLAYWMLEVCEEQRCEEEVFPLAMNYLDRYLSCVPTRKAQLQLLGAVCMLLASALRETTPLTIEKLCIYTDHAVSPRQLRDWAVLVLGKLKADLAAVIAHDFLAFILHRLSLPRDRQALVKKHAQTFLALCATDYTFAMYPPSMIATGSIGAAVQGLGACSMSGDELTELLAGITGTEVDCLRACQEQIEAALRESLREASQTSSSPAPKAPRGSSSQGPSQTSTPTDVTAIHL
P2: MICAL3 docking peptide (human); LQLRRQLSFSEDS; partner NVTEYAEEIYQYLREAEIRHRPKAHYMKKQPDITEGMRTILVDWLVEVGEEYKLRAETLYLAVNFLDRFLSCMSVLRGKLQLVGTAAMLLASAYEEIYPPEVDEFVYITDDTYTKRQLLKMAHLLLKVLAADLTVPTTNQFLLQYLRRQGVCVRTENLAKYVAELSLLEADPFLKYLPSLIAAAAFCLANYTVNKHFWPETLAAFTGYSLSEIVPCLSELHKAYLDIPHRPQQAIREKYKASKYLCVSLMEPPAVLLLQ
| Molecule | target | test | system | conditions | how to read | quantity | value |
| --- | --- | --- | --- | --- | --- | --- | --- |
| P1 K6E | CCND3 | yeast growth competition, sequencing | yeast | weak parent motif | baseline: not given, higher = stronger binding | normalised enrichment score | 0.427 |
| PhoQ, residues 284 288 289 292 302 303 ALASRC | PhoP, residues 12 14 15 18 19 NYFTV (Escherichia coli, UniProt P23836) | Sort-seq, item: YFP reporter | E. coli | PhoQ-PhoP variant library, together with: 10 µM Mg2+ | baseline: high Mg2+ state, higher = stronger signaling | fold induction | 1.75 |
| P1 S2T | CCND3 | yeast growth competition, sequencing | yeast | weak parent motif | baseline: not given, higher = stronger binding | normalised enrichment score | 1.26 |
| P2 S8T | CCNA1, cyclin fold, Cln2 fusion (human) | yeast growth competition, sequencing | yeast | weak parent motif | baseline: not given, higher = stronger binding | normalised enrichment score | 0.361 |

Excerpt of the above (study 1):
| Strand | RBNS enrichment (R) |
| --- | --- |
| GGGAGUUCUACAGUCCGACGAUCCCAGCGUUGUCUCACUCUGAUCCCUACCCUGAGCCUGCUGAACUGCCCUCAGAGUGCUCAUAUGGGGAGGGGGAUAUCUACUGUGGCUUCCAAAAGUCCCCACUAGUUGGUGGAAUUCUCGGGUGCCAA | 0.358 |
| GGGAGUUCUACAGUCCGACGAUCUAGAAGGGUCUGAUAUUAGGUUUAGUGCUCUGCUAGUGCAGUUGUUGAAUUCUUAAGAAUGUUUGAUGAAGGCAUAUUUUCACUUUGUACUGGCUCACCAAAAUUGCUGAUGGAAUUCUCGGGUGCCAA | 0.554 |
